{"data": "Results from different studies", "note": "Each line is one published result; not all experiments were run side by side. Numbers after ± are the reported error."}
{"Compound": "CC(C)[C@H](N)C(=O)OCOC(=O)c1ccccc1.O=C(O)C(F)(F)F", "system": "isotonic buffer", "conditions": "pH 7.4, 37 °C", "half-life": "0.14 min"}
{"Compound": "c1cc2c(s1)CCOC21CCN(Cc2ccc3c(c2)OCCO3)CC1", "system": "human liver microsomes", "half-life": "5.2 min"}
{"Compound": "NCCCC[C@H](NC(=O)[C@H](Cc1ccccc1)NC(=O)[C@@H](CCCN=C(N)N)NC(=O)[C@@H](N)Cc1ccc(O)cc1)C(N)=O", "test": "trypsin cleavage", "conditions": "1 µM, pH 7.4, room temperature", "half-life": "~720 min"}
{"Compound": "C#Cc1c(F)ccc2cc(O)cc(-c3ncc4c(N5CC6CCC(C5)N6C(=O)OCc5ccc(NC(=O)OCCCC)cc5)nc(OC[C@@]56CCCN5C[C@H](F)C6)nc4c3F)c12", "system": "mouse whole blood", "conditions": "1 µM", "half-life": "347 min"}
{"Compound": "Cc1ccc2nc(C)c(C(=O)NCc3cccs3)n2c1", "system": "mouse liver microsomes", "half-life": "< 3 min"}
{"Compound": "CSCC[C@H](NC(=O)[C@@H]1CSSC[C@H](NC(=O)[C@H](CCCCN)NC(=O)[C@H](Cc2ccc(O)cc2)NC(=O)CNC(=O)[C@@H](N)CC(C(=O)O)C(=O)O)C(=O)N[C@@H](C(C)C)C(=O)N[C@H](Cc2c[nH]c3ccccc23)C(=O)N[C@@H](CCCCN)C(=O)N[C@@H]([C@@H](C)O)C(=O)N1)C(=O)N1C[C@H](O)C[C@H]1C(=O)N[C@@H](C)C(=O)O", "system": "human plasma", "conditions": "3 µM, 37 °C", "half-life": "> 9480 min"}
{"Compound": "Nc1nc2c(ncn2COCCOC(=O)[C@@H](N)CO)c(=O)[nH]1", "test": "substrate", "system": "rabbit cornea homogenate", "conditions": "0.133 mM, pH 7.4, 34 °C", "half-life": "552 ± 36 min"}
{"Compound": "CC(C)C(N)C(=O)NC(C(=O)OCC(=O)C1(O)CCC2C3CCC4=CC(=O)C=CC4(C)C3C(O)CC21C)C(C)C (centres unmarked)", "system": "SIRC cell homogenate", "conditions": "pH 7.4, 37 °C", "half-life": "1140 ± 120 min"}
{"Compound": "CN(C)C(=O)Oc1ccc(/C=C(\\C#N)C(=O)NCCCNC(=O)/C(C#N)=C/c2ccc(OC(=O)N(C)C)c(OC(=O)N(C)C)c2)cc1OC(=O)N(C)C", "system": "rat plasma (Wistar, male)", "conditions": "100 µM, pH 7.4, 37 °C, plasma share 5 % raised to 80 %", "half-life": "> 1440 min"}
{"Compound": "O=C1CC2(C1)C(=O)[O][Pt]1([Cl])([O]C(=O)C(F)(F)F)([NH][C@@H]3CCCC[C@H]3[NH]1)[O]C2=O", "test": "HPLC", "system": "MeOH/PBS 1:9 v/v", "conditions": "pH 7.4, 37 °C, PBS 7.87 mM", "half-life": "50 to 60 min"}
{"Compound": "Cc1ccc2nc(C(F)(F)F)c(C(=O)NCc3cccc(Cl)c3)n2c1", "system": "human liver microsomes", "half-life": "< 3 min"}
{"Compound": "Cc1ccc(OCCN(C)C)cc1C(=O)N[C@H](C)c1cc(-c2cnn(C)c2)cc(-c2cnn(C)c2)c1", "system": "mouse liver microsomes", "half-life": "> 145 min"}
{"Compound": "N=C(N)NCCC[C@@H]1NC(=O)[C@H](CCCNC(=N)N)NC(=O)[C@H](CCCNC(=N)N)NC(=O)[C@H](CCCNC(=N)N)NC(=O)[C@H](Cc2c[nH]c3ccccc23)NC(=O)[C@H](CCCNC(=N)N)NC(=O)[C@H](CCCNC(=N)N)NC(=O)[C@@H](N)CCn2cc(nn2)C[C@@H](C(N)=O)NC1=O", "test": "trypsin degradation, HPLC", "system": "PBS", "conditions": "pH 7.4, 37 °C, added: trypsin 0.1 ng/mL", "half-life": "18.4 min"}
{"Compound": "CCCCCCCC(=O)OC[C@H](NC(=O)[C@H](CO)NC(=O)CN)C(=O)N[C@@H](Cc1ccccc1)C(=O)N[C@@H](CC(C)C)C(=O)N[C@@H](CO)C(=O)N1CCC[C@H]1C(=O)N[C@@H](CCC(=O)O)C(=O)N[C@@H](Cc1cnc[nH]1)C(=O)N[C@@H](CCC(N)=O)C(=O)N[C@@H](CCCNC(=N)N)C(=O)N[C@H](C(=O)N[C@@H](CCC(N)=O)C(=O)N[C@@H](CCC(N)=O)C(=O)N[C@@H](CCCNC(=N)N)C(=O)N[C@@H](CCCCN)C(=O)N[C@@H](CCC(=O)O)C(=O)N[C@@H](CO)C(=O)N[C@@H](CCCCN)C(=O)N[C@@H](CCCCN)C(=O)N1CCC[C@H]1C(=O)N1CCC[C@H]1C(=O)N[C@@H](C)C(=O)N[C@@H](CCCCN)C(=O)N[C@@H](CC(C)C)C(=O)N[C@@H](CCC(N)=O)C(=O)N1CCC[C@H]1C(=O)N[C@@H](CCCNC(=N)N)C(=O)O)C(C)C", "test": "two-site ELISA", "system": "healthy men and women, plasma", "conditions": "continuous intravenous infusion, 5 µg/kg/h, 65 min infusion", "half-life": "9 ± 2 min"}
{"Compound": "Cc1ccc(OCCN(C)C)cc1C(=O)N[C@H](C)c1cc(-c2cnn(C)c2)cc(-c2cnn(C(C)C)c2)c1", "system": "mouse liver microsomes", "half-life": "79.7 min"}
{"Compound": "CC[C@H](C)[C@@H]1NC(=O)[C@H](Cc2ccc(O)cc2)NC(=O)[C@@H](N)CSCSC[C@@H](C(=O)N2CCC[C@H]2C(=O)N[C@@H](CC(C)C)C(=O)NCC(N)=O)NC(=O)[C@H](CC(N)=O)NC(=O)[C@H](CCC(N)=O)NC1=O", "system": "phosphate buffer", "conditions": "0.1 mg/mL, pH 9.0, 55 °C", "half-life": "4320 min"}
{"Compound": "O=C(Cc1ccc2ccccc2c1)N[C@H](Cc1ccccc1)C(=O)N[C@H](Cc1ccc(O)cc1)C(=O)N[C@H](Cc1ccccc1)C(=O)N[C@H](Cc1ccc(OP(=O)(O)O)cc1)C(=O)O", "test": "substrate", "system": "HepG2 cell lysate", "conditions": "500 µM, pH 7.4, 37 °C", "half-life": "> 360 min"}
{"Compound": "CC(COC(=O)c1ccccc1)OC(=O)C(N)C(C)C (mixture of isomers)", "system": "Caco-2 cell homogenate", "conditions": "pH 7.4, 37 °C, 500 µg/mL protein", "half-life": "~43 min"}
{"Compound": "CSCC[C@H](NC(=O)CNC(=O)CNC(=O)[C@H](CO)NC(=O)[C@H](CC(C)C)NC(=O)[C@@H]1CCCN1C(=O)[C@H](CO)NC(=O)[C@H](CC(N)=O)NC(=O)[C@H](CC(C)C)NC(=O)[C@H](C)NC(=O)[C@@H](NC(=O)[C@H](CC(C)C)NC(=O)[C@H](Cc1c[nH]cn1)NC(=O)[C@H](CC(C)C)NC(=O)[C@@H](NC(=O)[C@@H]1CCCN1C(=O)[C@H](CCC(N)=O)NC(=O)[C@H](Cc1ccccc1)NC(=O)[C@H](CC(=O)O)NC(=O)[C@H](CCCNC(=N)N)NC(=O)[C@H](Cc1c[nH]cn1)NC(=O)[C@H](CO)NC(=O)[C@H](Cc1c[nH]cn1)NC(=O)[C@H](CCSC)NC(=O)[C@H](CC(=O)O)NC(=O)CNC(=O)[C@H](CCCNC(=N)N)NC(=O)[C@H](CC(=O)O)NC(=O)CNC(=O)[C@@H](N)CCCNC(=N)N)C(C)C)C(C)C)C(N)=O", "test": "metabolic stability", "system": "SD rat liver homogenate", "conditions": "20 µg/mL, 37 °C", "half-life": "2.07 ± 0.022 min"}
{"Compound": "COc1ccc2nc(C)cc(OCC(=O)Nc3cc(C)cc(C)c3)c2c1", "system": "mouse liver microsomes", "half-life": "< 3 min"}
{"Compound": "N#Cc1ccc(NC(=O)c2cccnc2)cc1Cl", "system": "buffer", "conditions": "5 µM, pH 10.0, 37 °C", "half-life": "39.2 ± 8.7 min"}
{"Compound": "CC(=O)N[C@@H](Cc1ccc(O)cc1)C(=O)N[C@@H](CCCNC(=N)N)C(=O)N[C@@H](Cc1ccccc1)C(=O)NCCC(=O)N[C@@H](CCCNC(=N)N)C(=O)N[C@@H](CC(N)=O)C(=O)NCCC(=O)N[C@H](C(=O)N[C@@H](Cc1ccccc1)C(=O)NCCC(=O)N[C@@H](Cc1ccccc1)C(=O)N[C@@H](Cc1ccc(O)cc1)C(=O)NCCC(=O)N[C@H](C(=O)N[C@@H](CC(=O)O)C(N)=O)[C@@H](C)O)C(C)C", "test": "LC-MS", "system": "human serum", "conditions": "10 µM, 37 °C", "half-life": "35.4 min"}
{"Compound": "Cc1cccc(-c2nc(Nc3ccncn3)c3sccc3n2)n1", "system": "human liver microsomes", "half-life": "22 min"}
{"Compound": "CC[C@H](C)[C@@H]1NC(=O)[C@H](CC(N)=O)NC(=O)[C@@H]2CCCN2C(=O)[C@@H](NC(=O)[C@H](CC(N)=O)NC(=O)[C@@H](N)CCC(N)=O)COC(=O)[C@H](CCSC)NC(=O)[C@H](Cc2c[nH]c3ccccc23)NC(=O)[C@H](CCC(N)=O)NC(=O)CNC(=O)[C@H](Cc2ccccc2)N(C)C1=O", "system": "PBS with chymotrypsin", "conditions": "0.28 mM, pH 7.2, 37 °C, added: chymotrypsin 50 nM", "half-life": "> 1440 min"}
{"Compound": "Cc1ccc2nc(C)c(C(=O)NCc3ccc(C(F)(F)F)cc3)n2c1", "system": "mouse liver microsomes", "conditions": "2 µM", "half-life": "15 min"}
{"Compound": "CC(COC(=O)c1ccccc1)OC(=O)C(N)Cc1ccccc1 (mixture of isomers)", "system": "rat intestinal homogenate", "conditions": "37 °C", "half-life": "< 60 min"}
{"Compound": "C/C(=N\\OCCCN1CCCCC1)c1ccc(C(F)(F)F)cc1", "system": "mouse plasma", "half-life": "> 770 min"}
{"Compound": "C[C@]12C(=O)[C@](C)(C(c3ccccc3)=C1c1ccccc1)C1(Br)C(=O)N(CCN)C(=O)C12 (some centres unmarked)", "test": "CO release, HPLC", "system": "TRIS-sucrose buffer", "conditions": "pH 7.4, 4 to 5 °C", "half-life": "1860 min"}
{"Compound": "O=P([O-])([O-])Oc1ccc(-c2cc(=S)ss2)cc1.[Na+].[Na+]", "system": "0.9% NaCl solution", "conditions": "pH 7.4, 37 °C", "half-life": "stable"}
